Published values of several laboratories.
Several values in a cell are separate wells, animals, samples, runs or records. Numbers after ± are the reported error.

CS(C)(=O)=Nc1ccc(-c2ccc(-c3nc4cc(O[C@@H]5CO[C@H]6[C@@H]5OC[C@H]6O)[nH]c4cc3F)cc2)cc1
inhibition (PRKCZ (Homo sapiens, UniProt Q05513); enzyme activity, inhibitor; 10 µM): 17%

CC(=O)NCCCC[C@@H]1NC(=O)[C@H](Cc2c[nH]c3c(C)cccc23)NC(=O)[C@H]([C@@H](C)O)NC(=O)[C@H](CC(N)=O)NC(=O)[C@@H](NC(C)=O)C(C)(C)SSC(C)(C)[C@@H](C(=O)N[C@@H](Cc2ccc(OCCN)cc2)C(=O)N[C@@H](Cc2ccc3ccccc3c2)C(=O)NC2(C(=O)N[C@@H](CCC(=O)O)C(=O)N[C@@H](CC(N)=O)C(=O)N[C@@H](Cc3cccnc3)C(=O)N(C)CC(N)=O)CCOCC2)NC1=O
tissue to plasma ratio (cynomolgus monkey, cecum; intravenous, 1 mg/kg): 55%

CCCCCCCCCCCCCCCC(=O)OCC(CSC[C@H](N)C(=O)N[C@@H](CO)C(=O)N[C@@H](CCCCN)C(=O)N[C@@H](CCCCN)C(=O)N[C@@H](CCCCN)C(=O)N[C@@H](CCCCN)C(=O)NCCCCCC(=O)N[C@@H](CCCCN)C(=O)N[C@@H](CC(C)C)C(=O)N[C@H](C(=O)N[C@@H](Cc1ccccc1)C(=O)N[C@@H](Cc1ccccc1)C(=O)N[C@@H](Cc1ccc2ccccc2c1)C(=O)O)C(C)C)OC(=O)CCCCCCCCCCCCCCC (stereo partly drawn)
serum ALT (C57BL/6J mouse, serum; intraperitoneal, dose not given): 12 U/L and 12.1 U/L and 12.2 U/L

C#Cc1c(F)ccc2cc(O)cc(-c3ncc4c(N5CC6CCC(C5)N6C(=O)OC(C)OC(=O)CCCCCCC)nc(OC[C@@]56CCCN5C[C@H](F)C6)nc4c3F)c12 (stereo partly drawn)
compound remaining (chemical stability; simulated intestinal fluid; 1 µM, 30 min): 83.3%

CC1(C)C(=O)N(c2ccc(C#N)c(C(F)(F)F)c2)C(=S)N1c1ccc(C(N)=O)c(F)c1
MRT (human, male, plasma; oral, 160 mg, single dose, fasting): 17.7 ± 2.6 days

CC(C)(C)C(=O)OCOP(=O)(OCOC(=O)C(C)(C)C)C1CCCN(O)C1=O (stereo not drawn)
log TGI (HOP-92): -4.29 log M

CSCC[C@H](NC(=O)CNC(=O)[C@H](CCCCN)NC(=O)[C@H](CC(C)C)NC(=O)[C@@H]1CCCN1C(=O)[C@H](CO)NC(=O)[C@H](Cc1c[nH]cn1)NC(=O)[C@H](Cc1c[nH]c2ccccc12)NC(=O)[C@H](CCCNC(=N)N)NC(=O)[C@H](CC(C)C)NC(=O)[C@H](CCCNC(=N)N)NC(=O)[C@H](Cc1c[nH]c2ccccc12)NC(=O)[C@H](CS)NC(=O)CCCCCNC(=O)CN1CCN(CC(=O)O)CCN(CC(=O)O)CCN(CC(=O)O)CC1)C(=O)O [copper-64 labelled]
tissue uptake (ex vivo biodistribution; BALB/c nude mice, brain; intravenous, dose not given, 1 h, Huh-7 tumour-bearing): 0.15 %ID/g

CC[C@H](C)[C@H](NC(=O)[C@H](CCC(N)=O)NC(=O)[C@H](Cc1c[nH]cn1)NC(=O)[C@H](C)NC(=O)[C@H](CC(C)C)NC(=O)[C@H](CCCCN)NC(=O)[C@H](CCC(N)=O)NC(=O)[C@@H](NC(=O)[C@@H](NC(=O)[C@@H]1CSSC[C@H](NC(=O)CNC(=O)[C@H](Cc2ccccc2)NC(=O)[C@H](CO)NC(=O)[C@H](CCCNC(=N)N)NC(=O)[C@H](CC(C)C)NC(=O)CNC(=O)[C@H](CCC(N)=O)NC(=O)[C@H](Cc2ccccc2)NC(=O)[C@H](CC(N)=O)NC(=O)[C@H](CC(N)=O)NC(=O)[C@H](CCSC)NC(=O)[C@H](CO)NC(=O)[C@H](CCC(N)=O)NC(=O)[C@H](CCCNC(=N)N)NC(=O)[C@@H](N)Cc2ccc(O)cc2)C(=O)N[C@@H](CCCNC(=N)N)C(=O)N[C@@H](Cc2ccccc2)C(=O)NCC(=O)N[C@@H]([C@@H](C)O)C(=O)N1)[C@@H](C)O)C(C)C)C(=O)N[C@@H](Cc1ccc(O)cc1)C(=O)N[C@@H](CCC(N)=O)C(=O)N[C@@H](Cc1ccccc1)C(=O)N[C@H](C(=O)N[C@@H](CC(=O)O)C(=O)N[C@@H](CCCCN)C(=O)N[C@@H](CC(=O)O)C(=O)N[C@@H](CCCCN)C(=O)N[C@@H](CC(=O)O)C(=O)N[C@@H](CC(N)=O)C(=O)N[C@H](C(=O)N[C@@H](C)C(=O)N1CCC[C@H]1C(=O)N[C@@H](CCCNC(=N)N)C(=O)N[C@@H](CO)C(=O)N[C@@H](CCCCN)C(=O)N[C@H](C(=O)N[C@@H](CO)C(=O)N1CCC[C@H]1C(=O)N[C@@H](CCC(N)=O)C(=O)NCC(=O)N[C@@H](Cc1ccc(O)cc1)C(=O)NCC(=O)O)[C@@H](C)CC)C(C)C)[C@@H](C)O
recovery (human EDTA plasma; 3 h, ambient temperature, storage stability; reference: untreated samples): 89.2%

CC(C)C[C@@H](NC(=O)[C@@H](CCCCN)NC(=O)CNC(=O)CNC(=O)[C@@H]1CSSC[C@H](N)C(=O)NCC(=O)N[C@@H](CCCNC(=N)N)C(=O)N[C@@H](CCCNC(=N)N)C(=O)N[C@@H](C)C(=O)NCC(=O)NCC(=O)N[C@@H](CO)C(=O)N1)C(=O)N[C@H](C)C(=O)N[C@H](CCCCN)C(=O)N[C@H](CC(C)C)C(=O)N[C@H](C)C(=O)N[C@H](CCCCN)C(=O)N[C@H](CCCCN)C(=O)N[C@H](CC(C)C)C(=O)N[C@H](C)C(=O)N[C@H](CCCCN)C(=O)N[C@H](CC(C)C)C(=O)N[C@H](C)C(=O)N[C@H](CCCCN)C(=O)O
clearance (mouse; intravenous, 15.0 mg/kg): 0.0488 ± 0.00917 mL/min

CC(C)(c1cc(Br)c(O)c(Br)c1)c1cc(Br)c(O)c(Br)c1
final permeate concentration (ultrafiltration; cow milk whey; 20 nM nominal in whole milk): 0.69 nM

CN(C)[C@H]1C[C@@]23CC[C@@]4(O2)C(=CC[C@]2(C)[C@@H](c5ccc6ccncc6c5)CC[C@H]24)C=C3[C@@H](O)[C@@H]1O
inhibition (MAP4K1 (Homo sapiens, UniProt Q92918); ATP probe labelling, inhibitor, KiNativ profiling; 0.1 µM): -1.6%

CC(C)N1CCCCC1C(=O)NC(Cc1ccc(-c2ccccc2)cc1)B(O)O (stereo not drawn)
Vd (rat, plasma; intravenous, 1 mg/kg): 2.3 L/kg

O=C1NC(=O)c2c1c1cc(F)c[n+]3c1c1c2c2cc(O)ccc2[n]1[Ru-4]312([N]=C=S)[S+]3CC[S+]1CC[S+]2CC3 (stereo not drawn)
remaining activity (NLK (Homo sapiens, UniProt Q9UBE8); enzyme activity; 100 nM, human enzyme, with: 10 µM ATP; reference: untreated): 85%

CC(C)[C@H]1NC(=O)C[C@H]2/C=C/CCSSC[C@@H](NC1=O)C(=O)N[C@H](Cc1cccc3ccccc13)C(=O)NCC(=O)O2
inhibition (MYLK2 (Homo sapiens, UniProt Q9H1R3); enzyme activity, inhibitor; 10 µM): -1.7%

COc1ccccc1-c1n[nH]c2nc(NC3CCN(C(=O)Cc4ccc(F)cc4F)CC3)ncc12
relative abundance (bead binding, competition bead pull-down, refers to: LINJ.24.1950; Leishmania donovani extract; 10 µM; reference: vehicle): 0.74

O=C1NC2(CC2)COc2ncc(F)cc2[C@H]2COCCN2c2ccn3ncc1c3n2
creatinine (Sprague-Dawley rat, male, serum; oral, 20 mg/kg/day, 4 weeks daily, end of treatment): 30 ± 4.3 µmol/L

N=C(N)NCCC[C@@H](NC(=O)[C@H](N)Cc1c[nH]c2ccccc12)C(=O)N[C@H](CCCCN)C(=O)N[C@H](Cc1c[nH]c2ccccc12)C(=O)N[C@H](CCCNC(=N)N)C(=O)N[C@H](CCCCN)C(=O)N[C@H](Cc1c[nH]c2ccccc12)C(=O)N[C@H](CCCNC(=N)N)C(=O)N[C@H](CCCCN)C(=O)N[C@H](Cc1c[nH]c2ccccc12)C(=O)N[C@H](CCCNC(=N)N)C(=O)N[C@H](CCCCN)C(N)=O
organ index (mouse, lung; intravenous, 30 mg/kg single dose, 7 days): 0.73

CC[C@H](C)[C@H](NC(=O)[C@H](CCCCN)NC(=O)CNC(=O)[C@H](CC(C)C)NC(=O)[C@H](Cc1ccccc1)NC(=O)[C@H](CCCCN)NC(=O)[C@H](CO)NC(=O)[C@H](Cc1ccccc1)NC(=O)[C@H](Cc1c[nH]c2ccccc12)NC(=O)[C@H](CCC(N)=O)NC(=O)[C@@H](NC(=O)[C@H](Cc1ccccc1)NC(=O)CCCCCNC(=O)CN1CCN(CC(=O)O)CCN(CC(=O)O)CCN(CC(=O)O)CC1)C(C)C)C(=O)N[C@@H](CCC(=O)O)C(=O)N1CCC[C@H]1C(=O)N[C@@H](CC(=O)O)C(=O)N[C@H](C(=O)N[C@@H](CO)C(=O)N[C@@H](CCC(N)=O)C(=O)N[C@H](C(=O)N[C@@H](CCC(N)=O)C(=O)N[C@@H](CC(=O)O)C(=O)N1CCC[C@H]1C(=O)N[C@@H](CC(N)=O)C(=O)N[C@@H](CC(=O)O)C(=O)N[C@@H](CCC(N)=O)C(=O)N[C@@H](Cc1ccc(O)cc1)C(=O)N[C@@H](CCC(=O)O)C(=O)N1CCC[C@H]1C(=O)N[C@@H](Cc1ccccc1)C(=O)O)C(C)C)C(C)C [copper-64 labelled]
tissue uptake (C57BL/6 male mouse, tumour-naive, thymus; 1 h): 2.43 ± 0.2 %ID/g

A few entries again:
CC(C)[C@H]1NC(=O)C[C@H]2/C=C/CCSSC[C@@H](NC1=O)C(=O)N[C@H](Cc1cccc3ccccc13)C(=O)NCC(=O)O2
inhibition (MYLK2 (Homo sapiens, UniProt Q9H1R3); enzyme activity, inhibitor; 10 µM): -1.7%

N=C(N)NCCC[C@@H](NC(=O)[C@H](N)Cc1c[nH]c2ccccc12)C(=O)N[C@H](CCCCN)C(=O)N[C@H](Cc1c[nH]c2ccccc12)C(=O)N[C@H](CCCNC(=N)N)C(=O)N[C@H](CCCCN)C(=O)N[C@H](Cc1c[nH]c2ccccc12)C(=O)N[C@H](CCCNC(=N)N)C(=O)N[C@H](CCCCN)C(=O)N[C@H](Cc1c[nH]c2ccccc12)C(=O)N[C@H](CCCNC(=N)N)C(=O)N[C@H](CCCCN)C(N)=O
organ index (mouse, lung; intravenous, 30 mg/kg single dose, 7 days): 0.73
